{"data": "Published values gathered from unrelated publications", "note": "Every numbered part comes from another study and shows a few of its results, in no order. Positions count from the first letter of the parent shown."}
{"data": "Study 1", "target": "ABI1, truncated, D143A, DHFR fusion (Arabidopsis thaliana)", "technique": "DHFR PCA, deep sequencing", "sample": "yeast", "notes": "methotrexate growth selection, single substitutions", "added": "(+)-ABA 0.0091 µM", "relative to": "wild-type fitted maximum", "direction": "higher = stronger binding", "starting sequence": "PYL1, truncated, DHFR fusion (Arabidopsis thaliana); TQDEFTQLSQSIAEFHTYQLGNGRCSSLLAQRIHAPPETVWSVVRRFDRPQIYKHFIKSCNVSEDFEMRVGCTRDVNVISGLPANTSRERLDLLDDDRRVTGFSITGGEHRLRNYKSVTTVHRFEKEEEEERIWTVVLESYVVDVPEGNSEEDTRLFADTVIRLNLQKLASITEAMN; partner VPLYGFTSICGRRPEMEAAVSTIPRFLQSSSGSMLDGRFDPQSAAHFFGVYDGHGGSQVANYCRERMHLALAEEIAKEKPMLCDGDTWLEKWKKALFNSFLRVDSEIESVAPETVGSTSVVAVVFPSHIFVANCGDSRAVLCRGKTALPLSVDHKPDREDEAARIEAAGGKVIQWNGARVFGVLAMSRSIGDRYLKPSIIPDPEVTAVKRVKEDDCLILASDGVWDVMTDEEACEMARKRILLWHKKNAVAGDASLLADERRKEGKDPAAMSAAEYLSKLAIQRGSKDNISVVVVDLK"}
{"Change": "G107C", "relative binding score": "7.74%"}
{"Change": "K116P", "relative binding score": "-1.78%"}
{"Change": "Y53R", "relative binding score": "-2.48%"}
{"Change": "R24I", "relative binding score": "0.259%"}
{"Change": "V145N", "relative binding score": "-0.136%"}
{"Change": "I33P", "relative binding score": "4.22%"}
{"Change": "C60A", "relative binding score": "-3.3%"}
{"Change": "E127D", "relative binding score": "38.1%"}
{"Change": "L166V", "relative binding score": "0.696%"}
{"Change": "T39D", "relative binding score": "5.19%"}
{"Change": "R99M", "relative binding score": "94.4%"}
{"data": "Study 2", "target": "Prothrombin, mature alpha-thrombin (F2, Homo sapiens, UniProt P00734)", "technique": "aptamer microarray, sandwich", "molecule type": "DNA with 2'F-ANA", "sample": "in vitro", "concentration": "200 nM", "notes": "whole 15-mer aptamer, many near background", "added": "Cy3 exosite-II aptamer, 400 nM", "direction": "higher = stronger binding", "sequence": "GGTTGGTGTGGTTGG"}
{"Modification": "2'F-ANA at 1 2 4 5 6 7 9 10 11 12 15", "mean fluorescence intensity [a.u.]": 59.2}
{"Modification": "2'F-ANA at 1 2 3 5 6 7 8 9 12", "mean fluorescence intensity [a.u.]": 132}
{"Modification": "2'F-ANA at 1 2 3 4 8 9 12 13 14", "mean fluorescence intensity [a.u.]": 69.1}
{"Modification": "2'F-ANA at 3 4 11 12 15", "mean fluorescence intensity [a.u.]": 909}
{"Modification": "2'F-ANA at 1 3 6 7 8 9 10 15", "mean fluorescence intensity [a.u.]": 199}
{"Modification": "2'F-ANA at 1 4 6 8 9 12 13 14", "mean fluorescence intensity [a.u.]": 53.5}
{"Modification": "2'F-ANA at 1 4 7 8 10 13 14", "mean fluorescence intensity [a.u.]": 83.9}
{"Modification": "2'F-ANA at 4 6 7 10 12 13 14 15", "mean fluorescence intensity [a.u.]": 53.8}
{"Modification": "2'F-ANA at 2 4 6 10 11 13 14 15", "mean fluorescence intensity [a.u.]": 60}
{"Modification": "2'F-ANA at 4 5 7 8 9 11 12 13", "mean fluorescence intensity [a.u.]": 72.4}
{"Modification": "2'F-ANA at 3 9 10 12 15", "mean fluorescence intensity [a.u.]": 719}
{"data": "Study 3", "target": "CCNB1, cyclin fold, Cln2 fusion (human)", "technique": "yeast growth competition, sequencing", "sample": "yeast", "notes": "weak parent motif", "relative to": "not given", "direction": "higher = stronger binding", "starting sequence": "SLBP docking peptide (human); ARYKRKLLINDFG"}
{"Change": "I9M", "normalised enrichment score": 0.849}
{"Change": "K4C", "normalised enrichment score": 0.258}
{"Change": "N10P", "normalised enrichment score": 0.915}
{"Change": "F12L", "normalised enrichment score": 1.21}
{"Change": "A1F", "normalised enrichment score": 0.17}
{"Change": "R2Y", "normalised enrichment score": 1.52}
{"Change": "Y3D", "normalised enrichment score": 0.508}
{"Change": "R2H", "normalised enrichment score": 0.438}
{"Change": "L8Q", "normalised enrichment score": 0.651}
{"Change": "K6R", "normalised enrichment score": 0.401}
{"Change": "K6W", "normalised enrichment score": 0.59}
{"Change": "L7M", "normalised enrichment score": 0.989}
{"data": "Single results of other studies"}
{"Molecule": "PhoQ, residues 284 288 289 292 302 303 SIHLQL", "target": "PhoP, residues 12 14 15 18 19 LHSVQ (Escherichia coli, UniProt P23836)", "test": "Sort-seq, measured: YFP reporter", "test system": "E. coli", "conditions": "PhoQ-PhoP variant library, added: 10 µM Mg2+", "how to read": "relative to: high Mg2+ state, higher = stronger signaling", "endpoint": "fold induction", "result": 12.6}
